Experimental data from different studies.
Each numbered part is a random draw from the data of one study; scales do not carry over between parts.

Set 1
Target: Fragile X messenger ribonucleoprotein 1, C-terminal low-complexity region (Fmr1, Mus musculus, UniProt P35922)
Technique: RNA Bind-n-Seq
Molecule type: RNA
Medium: in vitro
Tested at: 200 nM
Notes: whole 134-nt RNA, ends assumed
Together with: 150 mM KCl
Relative to: input library
Reading: higher = stronger binding
| Strand | log2 enrichment |
| --- | --- |
| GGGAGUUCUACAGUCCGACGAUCCUCAAGUCCUGUGCUACACAUCGUAUGUACCGAAUCGGUUGGGUUGGUUGGGGAAAGUAUUAUGUUACGCCGUUCGGAUCUGCACUUCCAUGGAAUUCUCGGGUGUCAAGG | 0.261 |
| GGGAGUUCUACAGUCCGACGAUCCUGUGCUACACAUCGUAUGUACCGAAUCGGGCCCCCCCGGGCCCCCCCGGGCCCCCCCGGGGAAAGUAUUAUGUUACGCCGUUCGGAUCUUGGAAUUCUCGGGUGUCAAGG | -1.35 |
| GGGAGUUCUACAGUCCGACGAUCAAGACAUUUGUUGUAUUUAUGGUUGUAACUGUACAUGCUUAUCAGGAUGAGACUGAAAGAAGGUAGGGCAAAAAUGGUUGAAUCUAUUUUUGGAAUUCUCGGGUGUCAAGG | -0.202 |
| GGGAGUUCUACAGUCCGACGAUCUAACUUUAGAGGAGGAUCUGAUGGAUAUGGCAGUGGACGUGGAUGUGGGGAUGGCUAUAAUGGGUAUGGAGGAGGACCUGGAGGUGGCAAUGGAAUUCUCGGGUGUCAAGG | 0.287 |
| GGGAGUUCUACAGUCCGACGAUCCUCAAGUCCUGUGCUACACAUCGUAUGUACCGAAUCGGUUUGGGUUUGGUUUGGAAAGUAUUAUGUUACGCCGUUCGGAUCUGCACUUCCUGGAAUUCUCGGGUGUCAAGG | -0.257 |
| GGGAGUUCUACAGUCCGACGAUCCUCAAGUCCUGUGCUACACAUCGUAUGUACCGAAUCGGUGGUUUGGUUUUUGGAAAGUAUUAUGUUACGCCGUUCGGAUCUGCACUUCCAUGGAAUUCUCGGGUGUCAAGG | -0.172 |
| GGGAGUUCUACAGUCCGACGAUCUGGCCCUGGAGGCAUGCGGGGAGGAAGAGGUGGCCUCAUGGAUCGUGGUGGUCCCGGUGGAAUGUUCAGAGGUGGCCGUGGUGGAGACAGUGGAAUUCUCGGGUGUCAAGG | 0.0173 |
| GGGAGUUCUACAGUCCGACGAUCGUCCUGUGCUACACAUCGUAUGUACCGAAUCGGGAAAAAAAGGGUGGGAAAAAAAGGGAAAGUAUUAUGUUACGCCGUUCGGAUCUGCACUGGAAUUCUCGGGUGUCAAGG | -0.194 |
| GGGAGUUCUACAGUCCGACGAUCCAAGUCCUGUGCUACACAUCGUAUGUACCGAAUCGGAAAAAGGUUUUUUUGGUGGAAAGUAUUAUGUUACGCCGUUCGGAUCUGCACUUCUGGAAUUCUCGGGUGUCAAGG | -0.856 |
| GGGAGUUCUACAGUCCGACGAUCCACAGACAACACGCACCCACACAGACACAGAGGGAAGGGGUUGGGAUGGGGACAGGGUGCACAGCAGGGCGGGUUAGGACCCCAGCCCCUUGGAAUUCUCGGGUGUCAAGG | 1.33 |

Set 2
Target: Histone acetyltransferase KAT6A, winged helix 2, GST fusion (KAT6A, Homo sapiens, UniProt Q92794, residues 85-181)
Technique: protein binding microarray
Molecule type: double-stranded DNA, one strand shown
Medium: in vitro
Tested at: not given
Notes: 8-mer, flanks averaged, mean of 2 arrays, mostly near background
Relative to: not given
Reading: higher = stronger binding
Target sequence (chain): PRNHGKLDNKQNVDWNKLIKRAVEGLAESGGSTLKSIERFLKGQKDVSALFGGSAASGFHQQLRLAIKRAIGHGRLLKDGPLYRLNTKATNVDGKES
| Strand | E-score |
| --- | --- |
| ACCCTGCG | 0.193 |
| GCATACTA | 0.0475 |
| AGCTGCTG | 0.119 |
| AAAGGCGG | 0.189 |
| AGTGCAAT | 0.0415 |
| AGTACCAT | -0.109 |
| ATTATCAC | 0.0161 |
| CACTACAA | 0.0327 |
| CTTAGCGA | 0.133 |
| AATATGAA | -0.118 |
| ATTATTTC | 0.107 |
| CCTAGTTC | -0.08 |
| CACGTCAC | -0.0721 |
| CCCAAGAA | 0.119 |
| AGTAACGC | -0.043 |
| CAGATCAC | -0.0297 |
| GAATTACC | -0.04 |
| ACCGCGGT | 0.176 |
| CTAATCAC | 0.15 |
| CTGACAAA | 0.127 |
| CCCGTCAA | -0.0266 |
| AATAACTG | -0.053 |
| CCGGCTAA | 0.066 |
| AGTGCCGC | -0.0391 |
| CGGGGCTC | 0.0724 |

Set 3
Target: Interferon regulatory factor 7, full length, phosphomimetic (IRF7, Homo sapiens, UniProt Q92985, residues 1-503, S101K/S471D/S472D/S475D/S476D/S477D/S483D/S484D/S487D)
Chain of UniProt Q92985 (whole entry, unmodified, looked up): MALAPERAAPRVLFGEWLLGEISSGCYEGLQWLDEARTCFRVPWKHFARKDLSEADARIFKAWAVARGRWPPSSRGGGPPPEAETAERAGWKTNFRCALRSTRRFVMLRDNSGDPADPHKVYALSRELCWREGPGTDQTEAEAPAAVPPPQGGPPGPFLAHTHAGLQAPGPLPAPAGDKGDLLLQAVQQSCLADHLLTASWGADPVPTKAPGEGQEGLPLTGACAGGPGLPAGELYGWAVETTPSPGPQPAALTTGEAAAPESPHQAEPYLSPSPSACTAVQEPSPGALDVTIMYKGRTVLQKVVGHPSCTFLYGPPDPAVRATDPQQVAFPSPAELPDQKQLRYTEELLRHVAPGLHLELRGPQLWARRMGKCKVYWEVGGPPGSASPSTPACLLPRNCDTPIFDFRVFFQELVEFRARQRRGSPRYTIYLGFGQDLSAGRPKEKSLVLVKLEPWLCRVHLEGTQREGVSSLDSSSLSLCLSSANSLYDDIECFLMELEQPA
Technique: protein-binding microarray
Molecule type: double-stranded DNA, one strand shown
Medium: in vitro
Tested at: 250 nM
Notes: 60-bp whole probe
Together with: salmon DNA 0.4 mg/ml
Relative to: random background probes
Reading: higher = stronger binding
Constant ends, left off below: GCCTAGCAC … GTCTTGATTCGCTTGACGCTGCTG
| Strand | log fluorescence |
| --- | --- |
| TTAGGTCTCGGTTTCGGTTTGTGCTAG | 13.2 z-score |
| CACGATTTCAGTTCCGAGACGTGCTAG | 0.859 z-score |
| TCAGTTTCGTATCTTCATACTGTGCTA | 11.3 z-score |
| TTAAGTATCGACTATCGGTTAGTGCTA | 0.453 z-score |
| GACGATATCGGGTTTCGATACGTGCTA | 5.15 z-score |
| TTAGATTTCGTGACTGGATTAGTGCTA | 0.207 z-score |
| GACGGACTGGGTCTCGGTACGTGCTAG | -0.142 z-score |
| CACGGTTTCGGGACTGGGGACGTGCTA | 4.26 z-score |
| CTGCTCCTCTTTTTTTGGTAGTGCTAG | 0.199 z-score |
| GCTTTTTTTTTTTTTTTTTTGTGCTAG | 1.26 z-score |
| TTAGATATCAGTCTGGATTAGTGCTAG | -0.335 z-score |
| TAACTAATATTAAATATGTAGTGCTAG | 0.146 z-score |
| GACGGACTGGGGTACCGGGACGTGCTA | -0.782 z-score |
| TTAGAGTTCAGTCTCGATTAGTGCTAG | 0.84 z-score |
| TGCTTCCTCTTTCTCTGCTAGTGCTAG | 2.37 z-score |
| GACGAAATCGGGTTTCGAGACGTGCTA | 3.28 z-score |
| TCATCAATCATTTTCGTACTGTGCTAG | 0.925 z-score |
| TTACATTTATATCTTTGCTTGTGCTAG | 0.229 z-score |
| TTAGGTTTCCGTTTCGGTTAGTGCTAG | 10 z-score |
| TTAGGTCTCCTCTTCCTTTAGTGCTAG | 0.335 z-score |
| GTAGTTTTCATTATTGTTTCGTGCTAG | 1.75 z-score |
| GACGATCTCAGTAGCGAGACGTGCTAG | -0.235 z-score |
| AAAACACTAATTTTCATTTTGTGCTAG | 1.78 z-score |
| TTAGGTCTCGGACTGGGTTAGTGCTAG | 0.462 z-score |
| GACGAACTGGGTACTGGAGACGTGCTA | -0.802 z-score |

Set 4
Target: RNA binding protein fox-1 homolog 2, RRM domain, GST-SBP tag (RBFOX2, Homo sapiens, UniProt O43251-10, residues 100-194)
Technique: RNA Bind-n-Seq
Molecule type: RNA
Medium: in vitro
Tested at: 365 nM
Notes: natural RNA segment, single round, ends assumed
Relative to: no-protein control
Reading: higher = stronger binding
Target sequence (chain): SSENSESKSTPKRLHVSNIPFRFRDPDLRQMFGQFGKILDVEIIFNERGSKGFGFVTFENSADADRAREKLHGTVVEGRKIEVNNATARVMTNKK
| Strand | RBNS enrichment (R) |
| --- | --- |
| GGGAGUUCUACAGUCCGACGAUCGCCCAGGGUCUAGGGUGUGCACUGGGCAAGGGCAGGGCGGCAGGUGUCAGGCCGGCUUGGACAAUGAAACCCUGACCUUGCUGCAUUCCUUUUGCUUCCACCACCACUAGUGGAAUUCUCGGGUGCCAA | 0.596 |
| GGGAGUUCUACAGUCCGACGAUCUCAGGGUCCUCUGAAAGUUACCCAGGGCUCUCAUCUACUUCCCUAGAGCUUGCAGUGUAAAGUGACAGCUAGUGUGCUCCCUCUCUCCCUCCCUCCCCCUCCUCUCCUCUUGGAAUUCUCGGGUGCCAA | 0.714 |
| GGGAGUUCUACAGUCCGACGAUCGGGCUCAAUCUGGGCAAUGACCCCGACCGAGGCACGUCCAUUGAGCAGCAGACAGCUCCGCCCAUCCUAGGACUCCCCCAAAGGAGCAACUGUAAUGUGGGACUAACAUGUGGAAUUCUCGGGUGCCAA | 0.401 |
| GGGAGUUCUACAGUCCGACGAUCCAGGUACCCGUGGCUGAGCUGAGCUUCCUCUGCUUUCCCUAGGCCUGGCCUCUGCAGGGAACUGCAGCACACACUGCACUCCCACCUGCUCUUGCCGCCAGCAUUGCACCUGGAAUUCUCGGGUGCCAA | 0.435 |
| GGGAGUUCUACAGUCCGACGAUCAAGUUUUAAGACCCCUGAAACAGCUAAAACAGGUUUCCAAAGUGUAAUCACUGGAUUUCAAAACCAUGUUUUAGCCCUUCAUUAAUGAAGCCUGUUGUACAGAUUUAGAGUGGAAUUCUCGGGUGCCAA | 0.299 |
| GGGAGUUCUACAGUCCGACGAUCAAAAUGAUUAUAACCAGUUGCACCCUGUAUUUCUUUUUGCAGCCAGCACAAUGUGACCCAACUUAAAAUUUGGGGGAAAAAGAAUGCAGGAGUGAAAUAACCAAGUCAAAUGGAAUUCUCGGGUGCCAA | 0.568 |
| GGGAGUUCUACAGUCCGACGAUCAUUUCCAGGUAUGGGGGUAGCCCCAAAAGGAGGAAUCUCCUAUGGCCAAUAAGGUAUCUUGACUUUAUCAAAGUAGAAGAGAGGGUCACUUCGGAGUCAAAUCAUACACUUGGAAUUCUCGGGUGCCAA | 0.251 |
| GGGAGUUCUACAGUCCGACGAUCUUGUAGGCUGUUCCCUUUGCCUUAAACCUGAAGAUGUCUCCUCAAGCCUGUGGGCAGCAUGCCCAGAUUCCCAGACCUUAAGACACUGUGAGAGUUGUCUCUGUUGGUCCUGGAAUUCUCGGGUGCCAA | 1.13 |
| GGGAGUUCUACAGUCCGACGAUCUUGGAAUAGCCCUGUCUAGGGCAAACUGUGGCCCCCAGGAGACACUACCCUUCCAUGCCCCAGACCUCUGUCUUGCAUGUGACAAUUGACAAUCUGGACUACCCCAAGAUUGGAAUUCUCGGGUGCCAA | 15.2 |

For quick reference, copied from above (set 3):
| Strand | log fluorescence |
| --- | --- |
| CTGCTCCTCTTTTTTTGGTAGTGCTAG | 0.199 z-score |
| GCTTTTTTTTTTTTTTTTTTGTGCTAG | 1.26 z-score |
| TTAGATATCAGTCTGGATTAGTGCTAG | -0.335 z-score |
| TAACTAATATTAAATATGTAGTGCTAG | 0.146 z-score |
| GACGGACTGGGGTACCGGGACGTGCTA | -0.782 z-score |
| TTAGAGTTCAGTCTCGATTAGTGCTAG | 0.84 z-score |
